{"data": "Measured values pooled from the literature", "Mapk1": "Mitogen-activated protein kinase 1 (Mapk1, Rattus norvegicus, UniProt P63086)", "note": "Compare with care: the assays were run in different laboratories. Values joined by “and” are separate records of one study, mostly repeats; a detail may differ. ± marks the error that the study gave.", "chain of UniProt P63086 (whole entry, looked up)": "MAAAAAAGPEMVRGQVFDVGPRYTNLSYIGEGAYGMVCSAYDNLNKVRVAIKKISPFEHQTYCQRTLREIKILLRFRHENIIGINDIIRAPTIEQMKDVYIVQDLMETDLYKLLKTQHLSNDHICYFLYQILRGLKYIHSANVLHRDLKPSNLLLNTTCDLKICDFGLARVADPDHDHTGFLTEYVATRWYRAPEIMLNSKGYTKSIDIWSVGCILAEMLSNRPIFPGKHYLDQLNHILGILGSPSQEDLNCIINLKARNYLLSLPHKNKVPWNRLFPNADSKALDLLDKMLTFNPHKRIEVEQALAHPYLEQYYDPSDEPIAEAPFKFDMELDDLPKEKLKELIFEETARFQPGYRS", "chain of UniProt Q9Y6F1 (whole entry, looked up)": "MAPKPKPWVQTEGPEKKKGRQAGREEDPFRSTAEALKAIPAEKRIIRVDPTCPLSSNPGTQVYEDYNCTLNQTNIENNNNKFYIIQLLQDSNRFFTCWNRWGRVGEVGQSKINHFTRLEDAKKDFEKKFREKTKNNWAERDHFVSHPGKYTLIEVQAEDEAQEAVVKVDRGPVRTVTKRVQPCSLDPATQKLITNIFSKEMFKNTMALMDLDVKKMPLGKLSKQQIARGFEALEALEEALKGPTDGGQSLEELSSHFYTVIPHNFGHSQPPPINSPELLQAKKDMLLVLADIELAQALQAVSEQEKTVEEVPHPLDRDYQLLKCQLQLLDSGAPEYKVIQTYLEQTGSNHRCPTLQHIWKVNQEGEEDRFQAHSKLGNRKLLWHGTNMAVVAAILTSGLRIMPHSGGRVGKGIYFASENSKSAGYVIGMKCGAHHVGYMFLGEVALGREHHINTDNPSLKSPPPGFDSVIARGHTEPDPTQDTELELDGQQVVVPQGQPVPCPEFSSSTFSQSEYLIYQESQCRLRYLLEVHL", "chain of UniProt Q08210 (whole entry, looked up)": "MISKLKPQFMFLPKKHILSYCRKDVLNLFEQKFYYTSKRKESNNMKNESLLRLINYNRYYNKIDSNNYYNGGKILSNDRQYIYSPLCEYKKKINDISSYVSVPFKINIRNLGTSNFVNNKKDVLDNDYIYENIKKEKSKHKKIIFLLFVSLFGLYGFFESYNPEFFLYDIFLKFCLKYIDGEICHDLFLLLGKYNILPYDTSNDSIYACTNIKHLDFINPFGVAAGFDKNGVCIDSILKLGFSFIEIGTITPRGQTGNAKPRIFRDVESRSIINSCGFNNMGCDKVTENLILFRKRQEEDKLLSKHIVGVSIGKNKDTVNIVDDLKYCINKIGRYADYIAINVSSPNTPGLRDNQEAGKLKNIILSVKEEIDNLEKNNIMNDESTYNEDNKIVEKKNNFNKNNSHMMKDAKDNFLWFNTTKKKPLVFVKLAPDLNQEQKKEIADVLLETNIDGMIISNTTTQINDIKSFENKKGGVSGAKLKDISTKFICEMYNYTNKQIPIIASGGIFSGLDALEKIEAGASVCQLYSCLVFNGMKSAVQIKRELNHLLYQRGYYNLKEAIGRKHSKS", "chain of UniProt P35462 (whole entry, looked up)": "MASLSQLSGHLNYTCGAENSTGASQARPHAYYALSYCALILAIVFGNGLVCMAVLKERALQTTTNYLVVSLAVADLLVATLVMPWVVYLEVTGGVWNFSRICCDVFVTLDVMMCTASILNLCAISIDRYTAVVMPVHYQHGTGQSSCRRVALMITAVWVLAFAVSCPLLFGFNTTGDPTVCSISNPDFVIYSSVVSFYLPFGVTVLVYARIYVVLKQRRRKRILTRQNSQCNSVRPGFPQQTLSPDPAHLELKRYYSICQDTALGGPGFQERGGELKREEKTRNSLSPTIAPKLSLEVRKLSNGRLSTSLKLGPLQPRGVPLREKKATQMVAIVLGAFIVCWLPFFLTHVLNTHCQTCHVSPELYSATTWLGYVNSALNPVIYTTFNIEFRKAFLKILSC", "chain of UniProt P25084 (whole entry, looked up)": "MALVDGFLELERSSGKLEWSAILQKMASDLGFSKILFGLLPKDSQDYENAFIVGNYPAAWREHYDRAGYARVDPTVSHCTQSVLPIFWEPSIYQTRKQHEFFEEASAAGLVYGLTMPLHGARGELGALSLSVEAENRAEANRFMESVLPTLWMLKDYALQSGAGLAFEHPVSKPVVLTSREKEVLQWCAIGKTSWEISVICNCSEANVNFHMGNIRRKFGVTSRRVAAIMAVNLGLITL", "chain of UniProt P19490 (whole entry, looked up)": "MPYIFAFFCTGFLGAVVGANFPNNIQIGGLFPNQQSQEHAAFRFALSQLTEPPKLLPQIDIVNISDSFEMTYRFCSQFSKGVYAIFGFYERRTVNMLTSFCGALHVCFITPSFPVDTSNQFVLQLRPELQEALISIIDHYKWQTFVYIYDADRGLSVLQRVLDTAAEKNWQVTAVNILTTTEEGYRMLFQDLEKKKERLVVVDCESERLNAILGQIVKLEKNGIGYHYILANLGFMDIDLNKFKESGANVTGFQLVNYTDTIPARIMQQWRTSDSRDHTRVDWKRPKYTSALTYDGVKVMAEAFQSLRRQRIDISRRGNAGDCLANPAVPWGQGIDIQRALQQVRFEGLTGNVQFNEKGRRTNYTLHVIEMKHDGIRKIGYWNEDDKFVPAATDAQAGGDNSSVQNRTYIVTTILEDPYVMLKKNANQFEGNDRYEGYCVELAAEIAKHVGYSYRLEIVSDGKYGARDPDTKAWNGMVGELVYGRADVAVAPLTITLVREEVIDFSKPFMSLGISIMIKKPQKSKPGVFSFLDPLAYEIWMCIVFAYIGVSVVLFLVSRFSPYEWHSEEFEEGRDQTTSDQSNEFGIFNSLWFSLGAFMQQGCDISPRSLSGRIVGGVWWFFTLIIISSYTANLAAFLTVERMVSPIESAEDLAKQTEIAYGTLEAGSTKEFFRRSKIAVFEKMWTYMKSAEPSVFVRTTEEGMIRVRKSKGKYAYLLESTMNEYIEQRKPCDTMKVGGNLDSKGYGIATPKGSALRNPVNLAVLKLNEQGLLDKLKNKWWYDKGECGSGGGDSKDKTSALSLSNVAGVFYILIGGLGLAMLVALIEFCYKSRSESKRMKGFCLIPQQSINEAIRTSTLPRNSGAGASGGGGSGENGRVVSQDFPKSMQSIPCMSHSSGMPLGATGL", "chain of UniProt P21554 (whole entry, looked up)": "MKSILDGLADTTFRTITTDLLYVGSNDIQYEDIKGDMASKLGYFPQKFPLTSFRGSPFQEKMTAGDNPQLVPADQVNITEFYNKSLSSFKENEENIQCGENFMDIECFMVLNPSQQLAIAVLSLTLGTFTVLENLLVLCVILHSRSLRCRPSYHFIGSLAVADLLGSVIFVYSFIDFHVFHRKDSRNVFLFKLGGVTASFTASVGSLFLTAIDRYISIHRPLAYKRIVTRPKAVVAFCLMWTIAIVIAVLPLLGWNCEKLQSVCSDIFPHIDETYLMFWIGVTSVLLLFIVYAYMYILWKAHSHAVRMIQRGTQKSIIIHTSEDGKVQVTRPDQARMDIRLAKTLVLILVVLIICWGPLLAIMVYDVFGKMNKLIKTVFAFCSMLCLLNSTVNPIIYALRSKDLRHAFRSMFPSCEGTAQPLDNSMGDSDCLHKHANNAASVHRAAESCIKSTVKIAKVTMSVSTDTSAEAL", "chain of UniProt P19491 (whole entry, looked up)": "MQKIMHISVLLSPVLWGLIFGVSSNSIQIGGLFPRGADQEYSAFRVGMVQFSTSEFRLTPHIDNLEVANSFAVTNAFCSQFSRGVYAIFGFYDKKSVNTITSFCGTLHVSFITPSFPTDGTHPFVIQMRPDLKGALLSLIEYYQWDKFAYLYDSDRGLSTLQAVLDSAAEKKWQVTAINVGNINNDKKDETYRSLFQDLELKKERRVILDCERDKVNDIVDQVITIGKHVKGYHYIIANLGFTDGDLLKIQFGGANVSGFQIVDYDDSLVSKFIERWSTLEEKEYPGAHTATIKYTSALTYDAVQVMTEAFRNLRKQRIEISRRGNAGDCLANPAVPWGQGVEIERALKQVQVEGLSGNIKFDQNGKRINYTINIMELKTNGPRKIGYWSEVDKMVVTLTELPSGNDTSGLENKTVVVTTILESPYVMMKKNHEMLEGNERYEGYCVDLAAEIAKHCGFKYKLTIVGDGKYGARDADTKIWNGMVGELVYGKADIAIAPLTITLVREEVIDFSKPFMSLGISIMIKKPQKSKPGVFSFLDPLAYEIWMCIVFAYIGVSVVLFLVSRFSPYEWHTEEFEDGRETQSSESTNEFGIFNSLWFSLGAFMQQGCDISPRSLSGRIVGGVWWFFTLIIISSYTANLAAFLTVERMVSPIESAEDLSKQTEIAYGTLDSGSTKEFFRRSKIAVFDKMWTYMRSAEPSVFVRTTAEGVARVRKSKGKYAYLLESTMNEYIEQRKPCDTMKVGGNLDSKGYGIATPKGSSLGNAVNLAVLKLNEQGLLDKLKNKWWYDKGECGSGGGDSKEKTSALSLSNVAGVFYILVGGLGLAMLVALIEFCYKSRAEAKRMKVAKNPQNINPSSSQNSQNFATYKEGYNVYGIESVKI", "chain of UniProt Q9URB4 (whole entry, looked up)": "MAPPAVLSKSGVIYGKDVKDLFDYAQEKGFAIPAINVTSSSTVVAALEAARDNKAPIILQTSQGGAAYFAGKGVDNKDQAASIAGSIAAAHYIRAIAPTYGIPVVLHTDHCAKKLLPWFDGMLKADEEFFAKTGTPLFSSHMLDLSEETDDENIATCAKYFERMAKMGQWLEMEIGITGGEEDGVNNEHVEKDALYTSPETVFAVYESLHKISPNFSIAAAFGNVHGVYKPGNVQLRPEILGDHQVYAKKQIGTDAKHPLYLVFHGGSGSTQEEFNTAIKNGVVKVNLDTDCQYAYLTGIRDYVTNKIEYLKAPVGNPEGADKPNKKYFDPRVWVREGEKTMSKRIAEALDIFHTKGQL", "chain of UniProt P00915 (whole entry, looked up)": "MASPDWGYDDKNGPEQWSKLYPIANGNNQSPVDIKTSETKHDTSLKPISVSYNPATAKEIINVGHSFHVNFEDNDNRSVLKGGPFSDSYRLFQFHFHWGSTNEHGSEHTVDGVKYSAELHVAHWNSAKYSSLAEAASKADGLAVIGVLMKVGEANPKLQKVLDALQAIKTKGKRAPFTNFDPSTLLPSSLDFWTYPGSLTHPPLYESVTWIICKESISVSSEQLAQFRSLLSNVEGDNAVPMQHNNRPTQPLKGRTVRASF"}
{"SMILES": "CC[C@H](C)[C@H](NC(=O)[C@H](CCCNC(=N)N)NC(=O)[C@H](C)NC(=O)[C@H](CS)NC(=O)[C@H](CCCNC(=N)N)NC(=O)[C@H](CO)NC(=O)CNC(=O)[C@H](C)NC(=O)[C@@H](N)Cc1ccc(O)cc1)C(=O)N[C@@H](Cc1ccccc1)C(=O)N[C@@H](CCCNC(=N)N)C(=O)N[C@@H](CC(C)C)C(=O)N[C@H](C(=O)N[C@@H](CC(C)C)C(=O)N[C@@H](CCC(N)=O)C(=O)N[C@@H](CCCCN)C(=O)O)C(C)C", "tested on": "Mapk1", "test": "enzyme activity, inhibitor, fluorescence", "setting": "pH 7.4", "measurement": "IC50", "value": "18.1 µM"}
{"SMILES": "COc1ccccc1-n1ccnc1SCC(=O)Nc1cc(C(F)(F)F)ccc1Cl", "tested on": "PFF0160c (Plasmodium falciparum, UniProt Q08210)", "test": "enzyme activity, inhibitor, absorbance", "measurement": "IC50", "value": "< 0.01 µM"}
{"SMILES": "CC(C)C[C@H](NC(=O)[C@H](CC(C)C)NC(=O)[C@H](CC(C)C)NC(=O)[C@H](CCCNC(=N)N)NC(=O)[C@H](CCCCN)NC(=O)[C@@H]1CCCN1C(=O)[C@H](CCCCN)NC(=O)[C@@H]1CCCN1C(=O)CNC(=O)[C@H](CCCNC(=N)N)NC(=O)[C@H](CCCCN)NC(=O)[C@H](CCCNC(=N)N)NC(=O)[C@H](C)NC(=O)[C@@H](N)Cc1ccc(O)cc1)C(=O)N[C@@H](CCC(N)=O)C(=O)N[C@@H](CCCNC(=N)N)C(=O)O", "tested on": "Mapk1", "test": "enzyme activity, inhibitor, fluorescence", "setting": "pH 7.4", "measurement": "IC50", "value": "4.22 µM"}
{"SMILES": "Cc1[nH]c(C)c(S(=O)(=O)NC2CCCCC2)c1C(=O)N1CCCC1", "tested on": "DRD3 (Homo sapiens, UniProt P35462)", "test": "Go activation, antagonist, BRET", "setting": "together with: dopamine", "measurement": "IC50", "value": "> 100 µM"}
{"SMILES": "COc1ccc(S(=O)(=O)Oc2ccc(/C=N/NS(=O)(=O)c3ccc(Cl)cc3)cc2)cc1", "tested on": "CA1 (Homo sapiens, UniProt P00915)", "test": "enzyme activity, inhibitor, absorbance", "measurement": "IC50", "value": "0.17 µM"}
{"SMILES": "CC12CCC3C(CCC4CC(O)CCC43C)C1CCC2C#N (stereo not shown)", "tested on": "CNR1 (Homo sapiens, UniProt P21554)", "test": "cAMP, antagonist", "measurement": "IC50", "value": "4.89 µM"}
{"SMILES": "O=C1NC2(CC2)COc2ncc(F)cc2[C@H]2COCCN2c2ccn3ncc1c3n2", "system": "Sprague-Dawley rat, female, liver", "setting": "oral, 10 mg/kg/day, 4 weeks", "measurement": "organ weight", "value": "12.1 ± 1.88 g"}
{"SMILES": "C=C1NC(=O)[C@H](CCSC)NC(=O)[C@H](Cc2ccc(O)cc2)NC(=O)[C@H](Cc2c[nH]cn2)NC(=O)CNC(=O)[C@H](CCC(N)=O)NC(=O)[C@H](CC(N)=O)NC(=O)[C@H](Cc2c[nH]cn2)NC(=O)[C@H]([C@@H](C)O)NC(=O)[C@H](CCC(N)=O)NC(=O)[C@H](CO)NC(=O)[C@H](Cc2c[nH]c3ccccc23)NC(=O)[C@H](Cc2c[nH]c3ccccc23)NC(=O)c2ccc(-c3nc(C(=O)OC)cs3)nc2-c2csc1n2", "tested on": "TNIK (Homo sapiens, UniProt Q9UKE5)", "test": "enzyme activity, inhibitor, ADP detection", "measurement": "IC50", "value": "2.7 µM"}
{"SMILES": "CC[C@H](C)[C@H](NC(=O)[C@H](Cc1ccccc1)NC(=O)[C@@H](NC(=O)[C@H](CCCNC(=N)N)NC(=O)[C@H](CC(C)C)NC(=O)[C@H](CCCCN)NC(=O)[C@H](CCCNC(=N)N)NC(=O)[C@H](CCCCN)NC(=O)[C@H](CCC(N)=O)NC(=O)[C@H](CCCCN)NC(=O)[C@@H](NC(=O)[C@@H]1CCCN1C(=O)[C@H](C)NC(=O)[C@@H](N)Cc1ccc(O)cc1)[C@@H](C)CC)[C@@H](C)CC)C(=O)N[C@@H](CO)C(=O)N[C@@H](CC(N)=O)C(=O)O", "tested on": "Mapk1", "test": "enzyme activity, inhibitor, fluorescence", "setting": "pH 7.4", "measurement": "IC50", "value": "7.02 µM"}
{"SMILES": "O=C(CCc1ccc(Br)cc1)N[C@H]1CCOC1=O", "tested on": "lasR (Pseudomonas aeruginosa, UniProt P25084)", "test": "reporter gene, antagonist", "system": "Escherichia coli, JLD271 with LasR plasmid", "setting": "together with: OdDHL 1 nM", "measurement": "IC50", "value": "0.21 µM"}
{"SMILES": "O=C(COP(=O)(O)O)C(O)C(O)C(O)COP(=O)(O)O (stereo not shown)", "tested on": "Fructose-bisphosphate aldolase (Candida albicans, UniProt Q9URB4)", "test": "enzyme activity, inhibitor, absorbance", "measurement": "IC50", "value": "3.87 µM"}
{"SMILES": "COC(=O)Cc1cc2c(cc1C(=O)c1cccc(Br)c1)OCO2", "tested on": "Glutamate receptor AMPA 1/2 (Gria1/Gria2, Rattus norvegicus, UniProt P19490+P19491)", "test": "ion current, antagonist, patch clamp", "measurement": "IC50", "value": "5.37 µM"}
{"SMILES": "O=C(c1cc(Cc2n[nH]c(=O)c3ccccc23)ccc1F)N1CC(CNC2CC2)C1", "tested on": "PARP3 (Homo sapiens, UniProt Q9Y6F1)", "test": "enzyme activity, inhibitor", "measurement": "IC50", "value": "0.78 µM and ~0.78 µM"}
{"note": "For quick reference, copied from above:"}
{"SMILES": "CC(C)C[C@H](NC(=O)[C@H](CC(C)C)NC(=O)[C@H](CC(C)C)NC(=O)[C@H](CCCNC(=N)N)NC(=O)[C@H](CCCCN)NC(=O)[C@@H]1CCCN1C(=O)[C@H](CCCCN)NC(=O)[C@@H]1CCCN1C(=O)CNC(=O)[C@H](CCCNC(=N)N)NC(=O)[C@H](CCCCN)NC(=O)[C@H](CCCNC(=N)N)NC(=O)[C@H](C)NC(=O)[C@@H](N)Cc1ccc(O)cc1)C(=O)N[C@@H](CCC(N)=O)C(=O)N[C@@H](CCCNC(=N)N)C(=O)O", "tested on": "Mapk1", "test": "enzyme activity, inhibitor, fluorescence", "setting": "pH 7.4", "measurement": "IC50", "value": "4.22 µM"}
